Experimental data pooled from the literature.
Protocols differ between the studies behind these lines. Values joined by “and” are separate records of one study, mostly repeats; a detail may differ. ± marks the error that the study gave.
CARM1: Histone-arginine methyltransferase CARM1 (CARM1, Homo sapiens, UniProt Q86X55)
UniProt Q86X55, sequence (whole entry, looked up): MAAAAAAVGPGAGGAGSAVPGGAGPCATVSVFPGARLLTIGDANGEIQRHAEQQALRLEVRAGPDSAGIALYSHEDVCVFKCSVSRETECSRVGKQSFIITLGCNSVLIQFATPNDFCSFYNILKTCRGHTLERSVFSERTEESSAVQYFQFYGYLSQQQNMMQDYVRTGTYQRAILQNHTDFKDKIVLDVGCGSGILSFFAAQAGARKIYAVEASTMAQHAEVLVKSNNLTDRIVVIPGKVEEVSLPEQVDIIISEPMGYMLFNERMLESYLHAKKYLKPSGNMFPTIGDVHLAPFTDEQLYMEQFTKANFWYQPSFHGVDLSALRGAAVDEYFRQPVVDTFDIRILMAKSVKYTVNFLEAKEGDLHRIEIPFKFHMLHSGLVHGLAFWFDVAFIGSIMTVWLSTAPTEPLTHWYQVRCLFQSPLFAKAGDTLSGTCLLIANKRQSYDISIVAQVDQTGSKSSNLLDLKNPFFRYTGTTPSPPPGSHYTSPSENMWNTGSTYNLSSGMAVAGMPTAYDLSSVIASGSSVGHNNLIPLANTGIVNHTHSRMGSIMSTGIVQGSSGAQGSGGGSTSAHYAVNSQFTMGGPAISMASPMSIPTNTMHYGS
CELA1: Chymotrypsin-like elastase family member 1 (CELA1, Sus scrofa, UniProt P00772)
UniProt P00772, sequence (whole entry, looked up): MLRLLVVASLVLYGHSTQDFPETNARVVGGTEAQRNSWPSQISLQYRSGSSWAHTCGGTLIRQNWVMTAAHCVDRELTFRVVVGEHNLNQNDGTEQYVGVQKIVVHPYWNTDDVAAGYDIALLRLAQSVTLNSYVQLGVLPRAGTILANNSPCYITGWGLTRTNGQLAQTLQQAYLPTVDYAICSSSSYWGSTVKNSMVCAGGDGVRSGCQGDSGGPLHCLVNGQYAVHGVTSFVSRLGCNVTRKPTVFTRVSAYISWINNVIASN
DPP9: Dipeptidyl peptidase 9 (DPP9, Homo sapiens, UniProt Q86TI2)
UniProt Q86TI2, sequence (whole entry, looked up): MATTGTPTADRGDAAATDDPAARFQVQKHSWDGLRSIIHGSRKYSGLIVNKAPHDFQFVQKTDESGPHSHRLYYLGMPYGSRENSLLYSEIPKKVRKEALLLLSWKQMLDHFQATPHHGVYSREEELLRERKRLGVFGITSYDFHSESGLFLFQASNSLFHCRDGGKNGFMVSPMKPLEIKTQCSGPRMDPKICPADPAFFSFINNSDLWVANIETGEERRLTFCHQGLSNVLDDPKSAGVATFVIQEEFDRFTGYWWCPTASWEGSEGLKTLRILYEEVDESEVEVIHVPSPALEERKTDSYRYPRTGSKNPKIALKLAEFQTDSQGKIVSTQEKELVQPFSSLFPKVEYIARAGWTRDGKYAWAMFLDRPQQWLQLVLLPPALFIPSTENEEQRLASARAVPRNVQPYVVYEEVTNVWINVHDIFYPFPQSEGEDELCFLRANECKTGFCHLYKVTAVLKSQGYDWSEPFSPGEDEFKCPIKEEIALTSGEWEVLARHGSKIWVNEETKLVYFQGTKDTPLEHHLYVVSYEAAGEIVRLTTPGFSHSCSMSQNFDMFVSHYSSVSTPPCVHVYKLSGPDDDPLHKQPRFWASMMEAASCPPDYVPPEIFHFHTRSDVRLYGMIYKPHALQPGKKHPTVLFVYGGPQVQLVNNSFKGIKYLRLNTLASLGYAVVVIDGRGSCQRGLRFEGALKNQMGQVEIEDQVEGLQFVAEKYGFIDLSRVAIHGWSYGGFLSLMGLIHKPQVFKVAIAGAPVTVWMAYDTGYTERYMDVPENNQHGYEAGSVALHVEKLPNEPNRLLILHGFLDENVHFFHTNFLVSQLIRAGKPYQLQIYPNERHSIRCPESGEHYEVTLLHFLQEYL
HTR1E: 5-hydroxytryptamine receptor 1E (HTR1E, Homo sapiens, UniProt P28566)
UniProt P35030, sequence (whole entry, unmodified, looked up): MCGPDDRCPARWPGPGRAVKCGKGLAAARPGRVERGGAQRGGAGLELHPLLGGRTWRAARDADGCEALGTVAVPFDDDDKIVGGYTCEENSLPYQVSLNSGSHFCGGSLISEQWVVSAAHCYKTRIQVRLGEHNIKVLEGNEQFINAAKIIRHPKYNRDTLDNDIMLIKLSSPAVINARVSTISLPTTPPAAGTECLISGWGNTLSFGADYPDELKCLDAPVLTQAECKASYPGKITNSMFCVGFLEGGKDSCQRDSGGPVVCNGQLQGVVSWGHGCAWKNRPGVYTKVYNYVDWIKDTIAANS
UniProt P28566, sequence (whole entry, looked up): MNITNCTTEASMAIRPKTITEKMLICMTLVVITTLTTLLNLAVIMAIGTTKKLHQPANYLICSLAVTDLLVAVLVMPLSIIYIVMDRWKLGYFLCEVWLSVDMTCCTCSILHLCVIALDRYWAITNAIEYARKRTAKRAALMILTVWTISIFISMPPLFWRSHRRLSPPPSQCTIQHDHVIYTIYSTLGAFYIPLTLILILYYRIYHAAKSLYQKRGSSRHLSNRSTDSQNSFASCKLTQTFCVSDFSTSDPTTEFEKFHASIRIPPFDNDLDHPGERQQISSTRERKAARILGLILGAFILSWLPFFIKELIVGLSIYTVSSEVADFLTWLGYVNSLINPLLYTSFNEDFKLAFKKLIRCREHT
UniProt P23975, sequence (whole entry, looked up): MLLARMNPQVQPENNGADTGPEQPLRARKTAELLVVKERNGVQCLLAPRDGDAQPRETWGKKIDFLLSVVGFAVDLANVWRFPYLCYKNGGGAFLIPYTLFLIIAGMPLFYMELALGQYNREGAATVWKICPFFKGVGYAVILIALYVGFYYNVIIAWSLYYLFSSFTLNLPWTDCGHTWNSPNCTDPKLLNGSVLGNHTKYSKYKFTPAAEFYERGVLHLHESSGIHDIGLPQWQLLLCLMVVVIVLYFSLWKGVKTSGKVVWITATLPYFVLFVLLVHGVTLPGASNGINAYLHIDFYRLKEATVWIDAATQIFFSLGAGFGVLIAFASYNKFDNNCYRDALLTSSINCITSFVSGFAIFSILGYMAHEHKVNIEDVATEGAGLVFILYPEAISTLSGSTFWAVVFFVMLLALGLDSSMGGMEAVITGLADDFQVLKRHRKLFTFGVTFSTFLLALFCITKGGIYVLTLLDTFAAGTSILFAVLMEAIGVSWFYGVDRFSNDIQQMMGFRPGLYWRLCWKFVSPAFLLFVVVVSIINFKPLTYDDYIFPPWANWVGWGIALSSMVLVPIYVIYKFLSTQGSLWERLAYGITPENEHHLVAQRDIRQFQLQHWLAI
UniProt Q8WTQ7, sequence (whole entry, looked up): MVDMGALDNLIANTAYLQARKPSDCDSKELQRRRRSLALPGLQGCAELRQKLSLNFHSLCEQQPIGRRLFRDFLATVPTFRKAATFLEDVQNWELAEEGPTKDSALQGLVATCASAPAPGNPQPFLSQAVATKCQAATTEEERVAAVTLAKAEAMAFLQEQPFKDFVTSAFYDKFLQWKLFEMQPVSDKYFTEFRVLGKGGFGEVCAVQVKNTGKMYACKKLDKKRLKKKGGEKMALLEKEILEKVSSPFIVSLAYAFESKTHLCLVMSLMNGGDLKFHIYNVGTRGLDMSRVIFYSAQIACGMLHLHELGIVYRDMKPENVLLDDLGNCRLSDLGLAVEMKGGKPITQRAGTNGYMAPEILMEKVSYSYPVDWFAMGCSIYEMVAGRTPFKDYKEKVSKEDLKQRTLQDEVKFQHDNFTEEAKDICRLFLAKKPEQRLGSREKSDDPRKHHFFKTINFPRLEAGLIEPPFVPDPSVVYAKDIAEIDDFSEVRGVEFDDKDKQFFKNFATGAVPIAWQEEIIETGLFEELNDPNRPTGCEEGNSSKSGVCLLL
UniProt Q02248, sequence (whole entry, looked up): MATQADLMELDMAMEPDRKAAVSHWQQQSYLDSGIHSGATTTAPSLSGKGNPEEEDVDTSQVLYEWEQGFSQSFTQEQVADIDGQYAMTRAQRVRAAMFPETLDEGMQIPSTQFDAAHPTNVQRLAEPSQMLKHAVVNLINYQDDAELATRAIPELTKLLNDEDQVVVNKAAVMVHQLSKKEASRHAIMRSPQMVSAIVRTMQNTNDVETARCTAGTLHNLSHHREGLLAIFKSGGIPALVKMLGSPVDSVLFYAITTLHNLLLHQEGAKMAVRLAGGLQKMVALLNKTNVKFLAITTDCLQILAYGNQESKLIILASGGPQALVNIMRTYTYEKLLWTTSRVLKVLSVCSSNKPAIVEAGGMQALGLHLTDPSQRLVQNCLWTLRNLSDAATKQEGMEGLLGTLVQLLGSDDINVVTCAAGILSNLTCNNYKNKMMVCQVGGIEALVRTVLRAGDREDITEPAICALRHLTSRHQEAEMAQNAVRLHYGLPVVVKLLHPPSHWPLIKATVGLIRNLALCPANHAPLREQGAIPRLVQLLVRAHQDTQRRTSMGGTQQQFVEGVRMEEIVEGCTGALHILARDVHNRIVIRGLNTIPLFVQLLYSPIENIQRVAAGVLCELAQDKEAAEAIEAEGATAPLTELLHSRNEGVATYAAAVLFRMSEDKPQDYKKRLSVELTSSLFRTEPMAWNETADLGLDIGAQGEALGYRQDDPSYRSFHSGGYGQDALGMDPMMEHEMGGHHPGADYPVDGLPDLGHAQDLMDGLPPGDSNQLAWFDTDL
UniProt P45983, sequence (whole entry, looked up): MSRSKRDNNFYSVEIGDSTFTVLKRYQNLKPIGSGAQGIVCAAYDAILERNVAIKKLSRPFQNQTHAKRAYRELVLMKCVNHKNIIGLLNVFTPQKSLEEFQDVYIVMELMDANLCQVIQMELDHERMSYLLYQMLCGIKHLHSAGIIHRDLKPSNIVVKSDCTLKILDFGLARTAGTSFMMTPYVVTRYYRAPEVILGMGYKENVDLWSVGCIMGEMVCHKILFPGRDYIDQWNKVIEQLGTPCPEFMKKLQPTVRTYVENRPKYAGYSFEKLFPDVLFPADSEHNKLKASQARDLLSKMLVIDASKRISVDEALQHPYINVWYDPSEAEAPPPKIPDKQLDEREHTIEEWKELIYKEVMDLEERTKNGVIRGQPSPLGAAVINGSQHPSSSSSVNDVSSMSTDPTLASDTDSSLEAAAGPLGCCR

Structure (SMILES)	tested on	assay	system	setting	scale	endpoint	result
Cc1nc(-c2c[nH]c(C(=O)Nc3ncccc3O)c2)cs1	Trypsin-3 (Homo sapiens, UniProt P35030, W279Q)	enzyme activity, inhibitor, mixed model kinetics				Ki	245 µM and 233 µM
CC(C)C[C@H](NC(=O)[C@@H](CCCCNC(=O)[C@@H](Cc1ccccc1)NC(=O)CCCCCNC(=O)CN1CCN(CC(=O)O)CCN(CC(=O)O)CCN(CC(=O)O)CC1)NC(=O)[C@H](Cc1ccc(O)cc1)NC(=O)[C@H](CO)NC(=O)[C@H](Cc1c[nH]c2ccccc12)NC(=O)[C@H](Cc1c[nH]cn1)NC(=O)[C@@H]1CCC(=O)N1)C(=O)N[C@@H](CCCNC(=N)N)C(=O)N1CCC[C@H]1C(=O)NCC(N)=O [indium-111 labelled]			athymic nude mouse, female, intestines	intravenous, 0.037 MBq, 4 h		tissue uptake	4.59 ± 2.17 %ID
CC(=O)N1CCC[C@H]1C(=O)N[C@@H](CCCNC(=N)NCCC[C@H]1O[C@@H](n2cnc3c(N)ncnc32)[C@H](O)[C@@H]1O)C(=O)N[C@@H](CCCCN)C(=O)N[C@@H](CCC(N)=O)C(N)=O (relative stereo)	CARM1	enzyme activity, inhibitor				Ki	0.13 µM
C=C1CC[C@H](OCCCNC(=O)CCOCCOCCOCCOCCOCCOCCOCCOCCOCCOCCOCCOCCOCCOCCOCCOCCOCCOCCOCCOCCOCCOCCOCCOCCOCCOCCOCCOCCOCCOCCOCCOCCOCCOCCOCCOCCNC(=O)CCN2C(=O)CC(SC[C@H](NC(=O)[C@H](Cc3ccccc3)NC(=O)[C@H](CC(N)=O)NC(=O)[C@H](Cc3c[nH]cn3)NC(=O)[C@@H](NC(=O)[C@H](CC(=O)O)NC(=O)[C@H](CCC(N)=O)NC(=O)[C@H](CC(C)C)NC(=O)[C@H](CCCCN)NC(=O)[C@H](CCCCN)NC(=O)[C@H](CCCNC(=N)N)NC(=O)[C@H](CC(C)C)NC(=O)[C@H](Cc3c[nH]c4ccccc34)NC(=O)[C@H](CCC(=O)O)NC(=O)[C@@H](NC(=O)[C@H](CCCNC(=N)N)NC(=O)[C@H](CCC(=O)O)NC(=O)[C@H](CCSC)NC(=O)[C@H](CO)NC(=O)[C@H](CC(N)=O)NC(=O)[C@H](CC(C)C)NC(=O)[C@H](Cc3c[nH]cn3)NC(=O)[C@H](CCCCN)NC(=O)CNC(=O)[C@H](CC(C)C)NC(=O)[C@H](CC(N)=O)NC(=O)[C@H](Cc3c[nH]cn3)NC(=O)[C@H](CCSC)NC(=O)[C@H](CC(C)C)NC(=O)[C@H](CCC(N)=O)NC(=O)[C@@H](NC(=O)[C@H](CCC(=O)O)NC(=O)[C@H](CO)NC(=O)[C@@H](NC(=O)[C@@H](N)CO)C(C)C)[C@@H](C)CC)C(C)C)C(C)C)C(=O)O)C2=O)C/C1=C/C=C1\CCC[C@]2(C)[C@@H]([C@H](C)CCCC(C)(C)O)CC[C@@H]12 (stereo partly shown)			male cynomolgus monkey, plasma	subcutaneous, 0.07 mg/kg, single dose		half-life	27.7 h
C=CC(=O)Nc1cccc(Cn2ncc3cnc(Nc4cnn(CCOC)c4)nc32)c1	TRPM6 human	binding, KINOMEscan		100 nM	lower = stronger binding	percent of control	54%
Cc1nn(-c2cccc(N)c2)c(=O)c2cnc(Nc3ccc(N4CCNCC4)cc3)nc12	GRK7 (Homo sapiens, UniProt Q8WTQ7)	kinase activity, inhibitor, SelectScreen kinase profiling				IC50	2.84 µM
CSCCCC/C(=N/OS(=O)(=O)O)S[C@@H]1O[C@H](CO)[C@@H](O)[C@H](O)[C@H]1O	PTPN1 (Homo sapiens, UniProt P18031)	enzyme activity, inhibitor				Ki	6.29 µM
CCC1(CC)CC(=O)N(C2c3cc(C(=O)NC4c5ccccc5CC4O)ccc3OC2(C)COC)C(=N)N1 (stereo not shown)	plasmepsin X (Plasmodium knowlesi, UniProt A0A384K9C7)	enzyme activity, inhibitor, peptide cleavage				Ki	9e-05 µM and 8.8e-05 µM
CC(C)OCCOCc1ccc(OCC(O)CN(N=O)C(C)C)cc1 (stereo not shown)	Salmonella typhimurium	Ames test	TA1535	158 µg/plate, without metabolic activation	relative to: solvent control	revertant fold increase	0.8 fold
OB(O)c1ccc(OCc2ccccc2)nc1F	CELA1	enzyme activity, inhibitor, absorbance				Ki	248 µM
C=C(NC(=O)c1csc(-c2nc3c(cc2O)-c2nc(cs2)C(=O)NC(C(C)O)C(=O)NC(=C(C)OC)c2nc(cs2)C(=O)NC2c4nc(cs4)C(=O)NC(COC(=O)c4c5c6c(cccc6n4O)COC(=O)C(OC4CC(C)(O)C(N(C)C)C(C)O4)C2OC5)c2nc-3cs2)n1)C(N)=O (stereo not shown)			male cynomolgus monkey, plasma	intravenous, 9 mg/kg, single dose, infusion		half-life	5.59 h
Cc1ncsc1-c1ccc(C(C)NC(=O)C2CC(O)CN2C(=O)C(NC(=O)CCCCCCCCCCN2CCCC(Nc3ncc(Cl)c(Nc4ccccc4S(=O)(=O)C(C)C)n3)C2)C(C)(C)C)cc1 (stereo not shown)	22Rv1	RNA-seq, measured: ZNF493 mRNA		concentration not given	relative to: DMSO	log2 fold change	-1.59
Nc1ncc(-c2cc(-c3cnn(CC(F)(F)F)c3)ncc2F)nc1C(=O)NC1CNCC(F)C1 (stereo not shown)	TAOK3	KINOMEscan		1 µM	relative to: DMSO control	remaining binding	50%
CCC1(CC)C(=O)N(c2cccc(CCC(=O)O)c2)C1=O	DPP9	enzyme activity, inhibitor, fluorescence				Ki	0.345 µM
CC(=O)N[C@@H](CO)C(=O)N[C@H](C(=O)NCC(=O)NCC(=O)N[C@@H](CCCCN)C(=O)N[C@@H](C)C(=O)N1CCC[C@H]1C(=O)N[C@@H](CCCNC(=N)NCCC[C@H]1O[C@@H](n2cnc3c(N)ncnc32)[C@H](O)[C@@H]1O)C(=O)N[C@@H](CCCCN)C(=O)N[C@@H](CCC(N)=O)C(=O)N[C@@H](CC(C)C)C(=O)N[C@@H](C)C(=O)N[C@H](C(=O)N[C@@H](CCCCN)C(=O)N[C@@H](C)C(=O)N[C@@H](C)C(N)=O)[C@@H](C)O)[C@@H](C)O (relative stereo)	CARM1	enzyme activity, inhibitor				Ki	0.096 µM
O=C1N(c2cccc(CN3CCN(Cc4ccc(Br)cc4)CC3)c2)C(=O)C12CCCCC2	DPP9	enzyme activity, inhibitor, fluorescence				Ki	0.044 µM
CCCc1c(O)c(O)cc(C(=O)O)c1COC1OC(CO)C(O)C(O)C1O (stereo not shown)	Catenin beta-1, armadillo repeat domain (Mus musculus, UniProt Q02248)	binding to HD2, inhibitor, ELISA		with: His-HD2 with GST-ARD		Ki	0.9 ± 0.8 µM
CCCC1(C)C(=O)N(c2cccc(CN3CCN(Cc4ccc(Br)cc4)CC3)c2)C1=O	DPP9	enzyme activity, inhibitor, fluorescence				Ki	> 2 µM
C[C@@]1(C(=O)O)[C@@H](O)CC[C@]2(C)c3cc4c(cc3CC[C@@H]12)[nH]c1ccc(S(=O)(=O)n2c3ccccc3c3cc5c(cc32)CC[C@H]2[C@](C)(C(=O)O)[C@@H](O)CC[C@]52C)cc14	CA9 (Homo sapiens, UniProt Q16790)			pH 7.5		Ki	0.111 µM
Cn1ccc2c(N3CCN(CCCCOc4ccc5c(c4)NC(=O)CC5)CC3)cccc21	HTR1E	ligand displacement, radioligand				Ki	> 10 µM
COC1CN([C@H]2CC[C@H]([C@@]3(C)Oc4c(Cl)cc(C(=O)NCc5c(SC)cc(C)[nH]c5=O)c(C)c4O3)CC2)C1		RNA-seq, measured: SERINC2 mouse homolog	mouse, HT-1376 xenograft, whole blood	dose not given	relative to: vehicle	log2 fold change	1.73
Nc1ncnc2c1ncn2C1OC(CN(CCCC2CNCc3c2ccc(Cl)c3Cl)CCC(N)C(=O)O)C(O)C1O (mixture of isomers)	PNMT (Homo sapiens, UniProt P11086)	enzyme activity, inhibitor, coupled-enzyme				Ki	0.012 ± 0.001 µM
COC(=O)[C@]1(C(C)C)C=C(C(=O)Nc2cccc(C(=O)Nc3ccc(Nc4nccc(-c5cccnc5)n4)c(C)c3)c2)C(=O)CC1	MAPK8 (Homo sapiens, UniProt P45983)	SPR two-step binding model		wild-type protein surface		Ki	0.017 µM
OB(O)c1cnn(-c2cccc(Cl)c2)c1	CELA1	enzyme activity, inhibitor, absorbance				Ki	3330 µM
CCOC(=O)C12CC1C(n1cnc3c(NC)nc(C#Cc4ccc(Br)s4)nc31)C(O)C2O (stereo not shown)	SLC6A2 (Homo sapiens, UniProt P23975)	ligand displacement, radioligand				Ki	2.9 µM
CSc1ccc2c(c1)C(N1CCN(C)CC1)Cc1ccccc1S2 (stereo not shown)	HTR1E	binding				Ki	0.053 µM
CC[C@H](C)[C@H](NC(=O)[C@@H](NC(=O)[C@H](CO)NC(=O)[C@@H](NC(=O)[C@@H]1CCCN1C(=O)[C@H](CC(C)C)NC(=O)[C@H](CCCNC(=N)N)NC(=O)[C@H](CO)NC(=O)[C@H](CC(N)=O)NC(=O)[C@H](C)N)[C@@H](C)O)[C@@H](C)CC)C(=O)O	NHERF1 (Homo sapiens, UniProt O14745)	ligand displacement, FP				Ki	> 1000 µM
CCC1(CC)C(=O)N(c2ccc(CC(=O)O)cc2)C1=O	DPP9	enzyme activity, inhibitor, fluorescence				Ki	0.919 µM
